Measurements pooled from the literature.
A part holds a random share of what one study measured. Positions count from the first letter of the parent shown.

Series 1 — read-out: peptide-MHC binding; molecule type: peptide; concentration: concentration not given
Target: HLA class I histocompatibility antigen, A alpha chain, allele A*25:01 (Homo sapiens, UniProt P04439)
`VYWENEVSI` — result for binding: “inactive”.
Under binding, `MSRKLHRYI` is recorded as “inactive”.
For `VLIRRCHYL`, binding read “inactive”.
For `AVGVVCTGL`, binding read “inactive”.
`GMWCVLASR`: binding “inactive”.
`PVTPVIPRV`: binding “inactive”.

Series 2 — target: CCND3, cyclin fold, Cln2 fusion (human); method: yeast growth competition, sequencing; medium: yeast; setting: weak parent motif; baseline: not given; reading: higher = stronger binding
Starting sequence: viral docking peptide; KKAKRRLFTISDS; partner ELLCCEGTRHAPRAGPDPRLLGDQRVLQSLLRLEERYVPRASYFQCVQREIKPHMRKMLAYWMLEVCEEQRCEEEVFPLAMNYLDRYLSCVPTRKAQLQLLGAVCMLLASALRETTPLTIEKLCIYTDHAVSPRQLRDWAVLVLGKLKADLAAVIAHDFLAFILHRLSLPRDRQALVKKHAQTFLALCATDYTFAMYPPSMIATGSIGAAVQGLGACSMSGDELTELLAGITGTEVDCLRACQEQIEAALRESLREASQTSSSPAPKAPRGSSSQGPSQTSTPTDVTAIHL
Under “normalised enrichment score”, `R6A` is recorded as 0.275.
For `K1A`, “normalised enrichment score” read 0.113.
`L7A` — result for “normalised enrichment score”: 0.135.
Under “normalised enrichment score”, `S11A` is recorded as 0.184.
`K4A`: “normalised enrichment score” 0.159.
`F8A` — result for “normalised enrichment score”: 0.144.
`R5K`: “normalised enrichment score” 0.063.

Series 3 — target: UBE2D2 UBC core domain (UniProt P62837); method: yeast two-hybrid; medium: yeast; setting: mostly zero background; baseline: not given; reading: higher = stronger interaction
Chain of UniProt P62837 (whole entry, looked up): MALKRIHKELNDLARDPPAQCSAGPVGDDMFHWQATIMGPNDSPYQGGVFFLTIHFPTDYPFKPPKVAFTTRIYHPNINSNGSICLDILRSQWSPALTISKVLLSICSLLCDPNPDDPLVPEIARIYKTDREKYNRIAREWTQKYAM
B1: RNF187 RING domain (UniProt Q5TA31); chain ALPAGPAEAACALCQRAPREPVRADCGHRFCRACVVRFWAEEDGPFPCPECADDCWQRAVEP
B2: RNF122 RING domain (UniProt Q9H9V4); chain AKKLQLYGQTCAVCLEDFKGKDELGVLPCQHAFHRKCLVKWLEVRCVCPMCNKPIASPSEAT
`RYRQMEERITCPICIDSHIRLVFQCGHGACAPCGSALSACPICRQPIRDRIQIF (MIB2 RING domain (UniProt Q96AX9))`: “lacZ reporter activity” 0.
For `B1 (RNF187 RING domain)`, “lacZ reporter activity” read 0.
`FVKTVEDKYKCEKCHLVLCSPKQTECGHRFCESCMAALLSSSSPKCTACQESIVKDKVF (TRAF3 RING domain (UniProt Q13114))`: “lacZ reporter activity” 0.
For `MNDVLENELQCIICSEYFIEAVTLNCAHSFCSYCINEWMKRKIECPICRKDIKSKTYSL (RNF8 RING domain (UniProt O76064))`, “lacZ reporter activity” read 0.
Under “lacZ reporter activity”, `B2 (RNF122 RING domain)` is recorded as 0.

Single results of other studies — method: cross-linking MS; medium: cell fractions; added: DSSO; NIP7: NIP7 (Homo sapiens, UniProt Q9Y221)
`NOC3L (Homo sapiens, UniProt Q8WTT2)`: cross-linked residues “K616 to K100” (NIP7).
`SMARCA1 (Homo sapiens, UniProt P28370)` — result for cross-linked residues: “K179 to K942” (BAZ1B (Homo sapiens, UniProt Q9UIG0)).
Under cross-linked residues, `NSA2 (Homo sapiens, UniProt O95478)` is recorded as “K134 to K100” (NIP7).
`NDUFS5 (Homo sapiens, UniProt O43920)` — result for cross-linked residues: “K91 to K99” (NDUFA13 (Homo sapiens, UniProt Q9P0J0)).

Repeated from above (series 2):
`K4A`: “normalised enrichment score” 0.159.
`F8A` — result for “normalised enrichment score”: 0.144.
`R5K`: “normalised enrichment score” 0.063.
